# Experimental data gathered from unrelated publications.
# Parts stem from different laboratories: compare values within a part only. Positions count from the first letter of the parent shown.

# Study 1
# Target: BATF2, bZIP domain (human)
# Method: DHFR protein complementation
# Medium: yeast
# Notes: single substitutions, most at no-binding floor
# Reference: wild-type JUN-FOS pair
# Reading: higher = stronger binding
# Starting sequence: JUN, bZIP domain (human); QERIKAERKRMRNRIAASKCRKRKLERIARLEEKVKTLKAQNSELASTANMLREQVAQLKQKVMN; partner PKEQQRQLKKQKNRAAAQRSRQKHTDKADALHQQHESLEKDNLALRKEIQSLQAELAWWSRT
Variant,binding fitness [natural log]
L52H,-1.41
T37A,-0.128
L31N,-1.32
E54L,-0.636
E32H,-0.739
M51E,-0.255
E54T,-0.465
T37P,-1.4

# Study 2
# Target: Interferon regulatory factor 3, full length, phosphomimetic (IRF3, Homo sapiens, UniProt Q14653, residues 1-427, S386D/S396D/S398D/S402D/T404D/S405D)
# Sequence of UniProt Q14653 (whole entry, unmodified, looked up): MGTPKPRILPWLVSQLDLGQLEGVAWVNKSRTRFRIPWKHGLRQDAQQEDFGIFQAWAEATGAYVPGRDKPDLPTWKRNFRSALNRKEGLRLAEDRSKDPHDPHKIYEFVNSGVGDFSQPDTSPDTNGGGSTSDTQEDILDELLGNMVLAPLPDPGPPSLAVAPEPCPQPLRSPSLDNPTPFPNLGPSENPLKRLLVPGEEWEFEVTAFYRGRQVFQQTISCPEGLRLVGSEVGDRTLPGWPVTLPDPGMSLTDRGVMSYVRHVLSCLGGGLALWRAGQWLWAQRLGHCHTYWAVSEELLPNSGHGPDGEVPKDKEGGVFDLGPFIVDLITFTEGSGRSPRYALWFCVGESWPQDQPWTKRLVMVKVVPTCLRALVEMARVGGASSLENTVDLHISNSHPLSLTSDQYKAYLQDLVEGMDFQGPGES
# Method: protein-binding microarray
# Molecule type: double-stranded DNA, one strand shown
# Medium: in vitro
# Concentration: 2540 nM top
# Notes: 60-bp whole probe
# Together with: salmon DNA 0.4 mg/ml
# Reference: random background probes
# Reading: higher = stronger binding
# All sequences stand within: GCCTAGCAC … GTCTTGATTCGCTTGACGCTGCTG
Sequence,fitted relative affinity [z-score]
TTTGGTATCGGTATCGGTTAGTGCTAG,5.74
TTAGATCACAGTCTCGATTAGTGCTAG,0.668
CTTTTTCCCTATTATATATATGTGCTA,6.29
TCATTTCTCCTTTCGGAACTGTGCTAG,4.6
GACGCACTGGGGACTGGAGACGTGCTA,-0.744
TTAGATAGCAGTATCGATTAGTGCTAG,0.509
TCAATTCTCAGCCCTGCGACTGTGCTA,0.311
TTAGATCTCACTTTCGATTAGTGCTAG,2.55

# Study 3
# Target: Hepatocyte nuclear factor 3-alpha (Foxa1, Mus musculus, UniProt P35582, residues 1-468, full length assumed)
# Method: EMSA with sequencing
# Molecule type: double-stranded DNA, one strand shown
# Medium: in vitro
# Concentration: 10 and 20 nM
# Notes: whole designed probe, mean of two concentrations, ends assumed
# Reference: negative control set to 0
# Reading: higher = stronger binding
# All sequences stand within: GTGAGCGGTGCCCATTGATGGGGAAC … TTTCACTGGGATCGTGGGGAC
# Residues (chain): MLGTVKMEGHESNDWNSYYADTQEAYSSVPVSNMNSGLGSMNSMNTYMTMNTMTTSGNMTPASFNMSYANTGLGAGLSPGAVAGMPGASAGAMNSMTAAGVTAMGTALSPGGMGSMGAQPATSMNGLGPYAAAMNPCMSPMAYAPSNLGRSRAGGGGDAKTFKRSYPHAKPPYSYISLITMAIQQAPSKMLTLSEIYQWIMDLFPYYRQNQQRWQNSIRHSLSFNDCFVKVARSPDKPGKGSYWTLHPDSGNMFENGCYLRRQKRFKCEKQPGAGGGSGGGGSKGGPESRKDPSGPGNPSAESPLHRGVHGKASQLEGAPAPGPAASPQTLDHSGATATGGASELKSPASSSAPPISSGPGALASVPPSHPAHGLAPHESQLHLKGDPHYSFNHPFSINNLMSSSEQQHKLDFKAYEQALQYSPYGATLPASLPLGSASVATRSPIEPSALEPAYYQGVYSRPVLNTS
Sequence,normalised bound fraction
AGCAAGGCTTTAAAAGTGAGGTCTTTCAGTTTAGATGCAAAAAGGGTGGTTCTGTTGAGTCAACCCAGTTTCGTAATGCTATTTCACTACATAGTAAACACCTAGAATGAGGTAGCTGGAGTGCAAATCTAAATGGCTTGTGACAGTTAAGGAAGTACATAGGCAACAGTTACTGGTTTTCTTGATGCAGCTG,0.0125 ratio
TATCTTCTCCCCATTTATTAATTCACATATTTACATCAGCTTGGAGTTATTGATTTCTATTTTATTAAATAGTTTATAATTGATTACCATCCTAAATTATTTTAATGCTCAAATTGTCCCAAATTATGGCCAAAGAAAGCTCCTTCAAACTGGTTGCTATGTCCTTTTGACATGGCCCATCATTCTTTAAACA,0.0541 ratio
GTGTCAAATAGTGATAAGATTGACAACATCTGGAGAAAATATTTAGGAATATGACATTTATATTTTTAACAAAAGTGCAATGCTATTGCAATGTAATCTGCAAGCAGTTGGGAAAATGGCCCTGAGTATTGCTATTATTTCTCTTACTTAAAATAAAATGTGAACTTTTATGGTGAAGTGTTTTCATTGCACA,-0.0437 ratio
CTCCACAATATTGCAATAAACTAAATATTATAATAAGATGGCTTTGATTATTCTGTGTCCTAAAATGTGCTTATTTTCTATTCTTTTTTGTCCTAGATTACATTTAAAATTATACAACTGTCAGTGTTGATTTATAAGATAGAATGTACATATAAACTGGATCTCTGTCTCAGAGTAAGGAGGTGGAAAGAAA,0.169 ratio
ATGTGGGAACTAATTGAGGACCATGTTTACAATGCGTACAAATCATAAATCAATTAGTTCATATTGACAAGGAAGAAATTTACAAAAAGTATTTGTTTACATTGATACTGTCCATGTAAACTTTTTTCAATTCAAAAGAAACACATAGTTCTGTCATAAAGTAGATTTTCTATCCCTTTTATTTTCTGAGCTT,0.45 ratio

# Mixed results
# Starting sequence: viral docking peptide; KKVKRRLFETREL
Variant,target,assay,system,conditions,scale,quantity,result
E12A,"CCND1, cyclin fold, Cln2 fusion (human)","yeast growth competition, sequencing",yeast,weak parent motif,"reference: not given, higher = stronger binding",normalised enrichment score,0.24

# Some of these lines once more (study 1):
Variant,binding fitness [natural log]
E54T,-0.465
E54L,-0.636
M51E,-0.255
